Measurements from different studies.
Protocols differ between the studies behind these lines. Values joined by “and” are separate records of one study, mostly repeats; a detail may differ. ± marks the error that the study gave.

Structure (SMILES) | cell line | test | conditions | scale | endpoint | value
Cc1cc(Cl)cc(-c2ccnc3cc(CN4C(=O)C5C(C4=O)C5(C)C)sc23)c1C[C@@H]1CNCCO1 (stereo partly drawn) | CHP-212 resistant | PI staining flow cytometry | 0.1 µM, 24 h | – | cells in S phase | 18.3% and 17.3% and 12.7%
C=CC(=O)N1[C@H](c2ccc3c(c2)OCO3)c2[nH]c3ccccc3c2C[C@@H]1C(=O)NC1CC1 | rat DRG neurons | – | 0.3704 µM, 48 h, with: vincristine 40 nM | – | mean neuron degeneration | 44.2%
CCN(CC)CC(=O)Nc1cccc(-n2cc(-c3ccc4ccc(-c5cn(-c6cccc(NC(=O)CN(CC)CC)c6)nn5)cc4c3)nn2)c1 | RCC4 | PCR angiogenesis array, item: TGFB2 | 5 x IC50, 4 h, normoxia | baseline: untreated | fold regulation | -1.28 fold
Cc1ccncc1.[Cl-].[Cl-].[Ru+2].c1cc(-c2ccc3cccnc3n2)nc(-c2ccc3cccnc3n2)c1.c1ccc2cc3nc4c5cccnc5c5ncccc5c4nc3cc2c1 | SK-MEL-28 | – | light 633 nm, oxygen 18.5% | baseline: dark EC50 over light EC50 | phototherapeutic index | 115
COC(=O)c1cc(NC2=NC(=O)C(=Cc3ccc(N(C)C)cc3)S2)ccc1OC(C)=O | MCF7 | GC-MS, item: Guanosine | 1 µM | baseline: DMSO | metabolite level | -0.1 fold change
C=CC(=O)N1CC2C(=O)N(CCN(C)C)c3c(c4cc(Cl)c(-c5c(O)cccc5F)nc4n(-c4c(C)ccnc4C(C)C)c3=O)N2CC1C (stereo not drawn) | non-KRAS G12C-mutant cell lines | – | concentration not given | – | cell growth | no effect
Cn1ncc2cc(-c3cncc(Cl)c3N3CCC4(CCNC4=O)CC3)ccc21 | LS174T | gene expression, microarray, item: MT1F mRNA | concentration not given, 4 h | baseline: untreated cells | log2 fold change | 1.27
Nc1nnc(-c2ccccc2O)cc1N1CC2CCC(C1)N2c1ccnc(C#CCCN2CCCCCC2)c1 | SW1573 | ubiquitination, di-Gly remnant proteomics, item: YWHAB K11 ubiquitin site | 100 nM, 30 min | baseline: DMSO | log2 fold change | -0.29
COc1cc(N2CCN(C(=O)C3CCCN3)CC2)ccc1Nc1ncc(Cl)c(Nc2ccccc2P(C)(C)=O)n1 (stereo not drawn) | NCI-H3122 | CCK-8 | 100 nM, 48 h | – | viability | 30%
CCCCCCc1cccc(C(O)CC(CO)NC(=O)CCCCCCCCCCNC(C)=O)c1 (stereo not drawn) | HeLa | CERT activity, HPLC-MS/MS lipidomics, item: ceramide 24:1 | 1 µM, 24 h, not cell-number normalised | – | ceramide level | 18700 pmol/sample and 20800 pmol/sample and 18900 pmol/sample
O=C(CC(=O)Nc1ccc2c(/C=C/c3ccccn3)n[nH]c2c1)Nc1ccc(Cl)c(C(F)(F)F)c1 | Ba/F3 TEL-VEGFR3 | cell growth, CCK-8 | – | – | GI50 | 1200 nM
CCN(C(=O)c1cc(F)ccc1Oc1nncnc1N1CCC2(C1)CN([C@H](CCCN(C)CCOC)C(C)C)C2)C(C)C | MDA-MB-436 | cell growth or viability | 72 h | – | GI50 | > 10000 nM
COc1cccc(OC)c1-c1cc(C(=O)NC2(C(=O)O)C3CC4CC(C3)CC2C4)nn1-c1ccc(C(=O)N(C)CCOCCOCCN(C)C(=O)[C@H](CCCCNC(=O)[C@H](CC(C)C)NC(=O)C2OC2C(=O)O)NC(=O)CN2CCN(CC(=O)[O-])CCN(CC(=O)[O-])CCN(CC(=O)[O-])CC2)cc1C(C)C.[177Lu+3] (mixture of isomers) | HT-29 | – | concentration not given, 120 min | baseline: added activity | internalized fraction | 0.95 ± 0.03%
CN1CCCNC(=O)c2cccc(c2)C(=O)NCCCN(C)CCCNc2cccc3c2C(=O)c2cccc(c2C3=O)NCCC1 | SAS | RNA-Seq, item: SLC10A3 mRNA | 1 µM, 6 h | baseline: untreated cells | log2 fold change | -0.495
C1=[N+]2CCCC[N+]3=Cc4ccc5[n]4[Au-]23[n]2c1ccc2-c1nc2ccccc2nc1-5.F[P-](F)(F)(F)(F)F | TK-10 | NCI60 five-dose screen | – | – | TGI | 4 -log M
O=C(N1CCCC1)n1cc(-c2ccc(-c3ccccc3)cc2)nn1 | mouse T cells | N-terminal labelling proteomics, item: Tmsb4x N-terminal peptide | 0.001 µM, 6 h | baseline: DMSO | SILAC ratio per peptide | 1.18 and 0.87 and 0.89
CCCCCCCCN(CCC(=O)Nc1ccccc1)C(=O)c1ccccn1 | progeroid mouse fibroblasts, Lmna G609G/G609G | MTT | 2 µM, 72 h | baseline: vehicle-treated wild type | viability | 93 ± 9%
CNS(=O)(=O)Nc1nccc(Cc2c(C)c3ccc(Oc4ncccc4F)cc3oc2=O)c1F | NCI-H727 | cell viability | 7 days | – | IC50 | 1 nM
C/C(=N\Nc1ncnc2sc3c(c12)CCCC3)c1cc(O)ccc1O | HCT-116 overexpressing RelB-G200L | CCK-8 | concentration not given | – | cell proliferation | decreased
Cc1ncsc1-c1ccc(C(C)NC(=O)C2CC(O)CN2C(=O)C(NC(=O)CCCCCCCCCCN2CCCC(Nc3ncc(Cl)c(Nc4ccccc4S(=O)(=O)C(C)C)n3)C2)C(C)(C)C)cc1 (stereo not drawn) | 22Rv1 | RNA-seq, item: ZNF391 mRNA | concentration not given | baseline: DMSO | log2 fold change | -1.78
CN(CCCN1CCN(C(=O)[C@H](CCCCNC(=O)CC[C@H](C(=O)O)N2CCN(CC(=O)O)CCN(CC(=O)O)CC2)NC(=O)CCOCCOCCOCCOCCN)CC1)c1ccc2nccc(C(=O)NCC(=O)N3CC(F)(F)C[C@H]3C#N)c2c1 | HT-1080 cells expressing human FAP | flow cytometry | 0.2 µM, anti-La mAb detection, 200 nM | – | binding | 1.52%
Fc1ccc(Nc2nc(NC3CCCCC3)c3cc(C(F)(F)F)ccc3n2)cc1F | transfected HEK293 cells | β-arrestin2 recruitment, negative allosteric modulator, BRET | 30 min pre-incubation, β1AR ECL1/2 chimera, with: isoproterenol 1 µM | baseline: isoproterenol alone | Imax | -0.4%
O=C(Nc1cccc(Sc2ccc3c(/C=C/c4ccccn4)n[nH]c3c2)c1)c1ccco1 | Ba/F3 TEL-VEGFR2 | cell growth, CCK-8 | – | – | GI50 | 500 nM
COc1ccccc1-c1ccncc1C(=O)Nc1nnc(OCc2ccc(Cl)cc2)s1 | MDA-MB-436 | – | 0.75 µM | – | colony count | 13 and 11 and 14 and 12
Fc1ccc(Nc2nc(NC3CCCCC3)c3cc(Br)ccc3n2)cc1F | transfected HEK293 cells | β-arrestin2 recruitment, negative allosteric modulator, BRET | 30 min pre-incubation, β1AR ECL1 chimera, with: isoproterenol 1 µM | baseline: isoproterenol alone | Imax | 1%
CCC(=CCc1c(O)cc2c(c1O)C(=O)CC(c1ccc(O)cc1)O2)CC (stereo not drawn) | HeLa | annexin V/PI | 12 µM, 48 h | – | necrotic cells | 1.76 ± 0.05%
O=C(Nc1ccccc1)c1cccc([C@@H]2C[C@H]2NC2CCC2)c1 (racemic) | SET-2 | cell growth, CellTiter-Glo | 10 µM, 7 d | baseline: vehicle | relative growth | 80.3% and 89.9% and 74.7%
CO[C@@H]1[C@@H](OC(N)=O)[C@@H](O)[C@H](Oc2ccc3c(O)c(NC(=O)c4ccc(O)c(CC=C(C)C)c4)c(=O)oc3c2C)OC1(C)C | DLD-1 parental | – | 300 µM, replicate 2 | – | colony count | 0.1
CNC(NN=Cc1ccc([N+](=O)[O-])o1)=[S+][Au-][Cl] | CAKI-1 | cell invasion, 3D Transwell invasion | IC20, 24 h | baseline: untreated | inhibition | 58%
CC(C)c1ccc(N(C)c2ccc3c(c2)OCC[C@H]3CNc2cnccc2C(=O)O)cc1 | NCI-H2172 | cell growth or viability, ATP luminescence | 7 days | – | IC50 | 133 nM

A few entries again:
Structure (SMILES) | cell line | test | conditions | scale | endpoint | value
C=CC(=O)N1CC2C(=O)N(CCN(C)C)c3c(c4cc(Cl)c(-c5c(O)cccc5F)nc4n(-c4c(C)ccnc4C(C)C)c3=O)N2CC1C (stereo not drawn) | non-KRAS G12C-mutant cell lines | – | concentration not given | – | cell growth | no effect
CN(CCCN1CCN(C(=O)[C@H](CCCCNC(=O)CC[C@H](C(=O)O)N2CCN(CC(=O)O)CCN(CC(=O)O)CC2)NC(=O)CCOCCOCCOCCOCCN)CC1)c1ccc2nccc(C(=O)NCC(=O)N3CC(F)(F)C[C@H]3C#N)c2c1 | HT-1080 cells expressing human FAP | flow cytometry | 0.2 µM, anti-La mAb detection, 200 nM | – | binding | 1.52%
